# Published values gathered from unrelated publications.
# Lines come from different studies, so protocols differ. Values joined by “and” are separate records of one study, mostly repeats; a detail may differ. ± gives the spread as reported.
SMILES,cell line,assay,setting,scale,quantity,value
CN(C)c1ccc(-n2cc(COC(=O)[C@]3(C)C=C(C(=O)OC(C)(C)C)C(=O)CC3)nn2)cc1,HeLa,quantitative western blot,"concentration not given, 4 (unit not given), added: EGF",,pRSK/tubulin ratio,0.155
Cc1cc(NC2CCN(C)CC2)ccc1-c1cc2c(N3CCC[C@H](C(=O)NCc4ccc(OC(F)(F)F)cc4)C3)ncnc2[nH]1,KARPAS-299,"cell growth or viability, MTT","0.0016 µg/mL, 72 h",,inhibition,56.6%
Cc1cc(NC(=O)c2cccc(NC(=O)/C(C#N)=C/C(C)(C)C)c2)ccc1Nc1nccc(-c2cccnc2)n1,HEK293 AP1 reporter cells,"AP-1 reporter gene, inhibitor","10 µM, 6 h, unit not given, added: PMA",baseline: PMA alone,reporter activity,0.642
Cc1ncsc1-c1ccc(C(C)NC(=O)C2CC(O)CN2C(=O)C(NC(=O)CCCCCCCCCCN2CCCC(Nc3ncc(Cl)c(Nc4ccccc4S(=O)(=O)C(C)C)n3)C2)C(C)(C)C)cc1 (centres unmarked),22Rv1,"RNA-seq, item: ZNF274 mRNA",concentration not given,baseline: DMSO,log2 fold change,-1.37
CC[C@H](C)[C@H](NC(=O)[C@H](CCC(N)=O)NC(=O)[C@H](CC(C)C)NC(=O)[C@H](CC(N)=O)NC(=O)[C@H](Cc1c[nH]cn1)NC(=O)[C@H](CCCCN)NC(=O)[C@@H](NC(=O)[C@@H](N)C(C)C)[C@@H](C)O)C(=O)N[C@@H](COP(=O)(O)O)C(=O)N[C@@H](CCC(N)=O)C(=O)N[C@@H](COP(=O)(O)O)C(=O)N[C@@H](Cc1ccc(O)cc1)C(=O)O,MC3T3,,"300 µM, 12 days, added: BMP2 50 ng/mL",baseline: BMP2 alone,ALP activity,no effect
Cc1cc(NC2CCN(C)CC2)ccc1-c1cc2c(N3CCC[C@H](C(=O)N[C@H](C)c4ccccc4)C3)ncnc2[nH]1,KARPAS-299,"cell growth or viability, MTT","0.008 µg/mL, 72 h",,inhibition,10.8%
C=C1C(=O)OC2C1CCC(C)(O)C13C=CC(C)(C21)C1(C3)C(=O)OC2C3C(C)C(=O)CC3C(=C)CC(OC(C)=O)C21 (centres unmarked),AML12,,"concentration not given, concentration-dependent, added: palmitate/oleate",,triglyceride content,decreased
CC(=O)Oc1ccccc1C(=O)[Se]CC(=O)Nc1cccc(C(F)(F)F)c1,NCI60 CNS cancer panel,five-dose screen,,,GI50,2200 nM
Cn1c(=O)n(C2CCC(=O)NC2=O)c2ccc(C3CCN(CC(=O)Nc4cccc(CS(=O)(=O)N5CC[C@H](Nc6cccc(-c7sc(C(=O)O)c(OCC(=O)O)c7Cl)c6)CC5(C)C)c4)CC3)cc21 (some centres unmarked),B16-F10,"HTRF, item: phospho-STAT1 Tyr701","0.014 µM, added: IFN-γ",baseline: DMSO,fold change,2.48 and 2.05 and 2.35 and 1.95 and 1.99
CCOc1cncc(-c2ccc(NC(=O)C3(c4ccnc(NS(=O)(=O)C5CC5)n4)CCOCC3)nc2)n1,MEC1,"cell growth or viability, ATP luminescence",72 h,,IC50,57 nM
C=CC(=O)N1[C@@H](c2ccc3c(c2)OCO3)c2[nH]c3ccccc3c2C[C@H]1C(=O)NC1CC1,rat DRG neurons,,"0.3704 µM, 48 h, added: vincristine 40 nM",,neuron degeneration,81.1% and 75.7%
CCCCN1C(=O)c2cccc3c(NCCCCCCCCCCN4CCOCC4)ccc(c23)C1=O,BHK-21,confocal lambda scanning,,,emission maximum in ER,537 nm
CC1(C)CC(=O)C2=C(C1)Oc1ccc3ccccc3c1C2c1c[nH]c2ccccc12 (centres unmarked),3T3-L1,"cell growth or viability, MTT",72 h,,IC20,106 µg/mL
CN1CCCNC(=O)c2cccc(c2)C(=O)NCCCN(C)CCCNc2cccc3c2C(=O)c2cccc(c2C3=O)NCCC1,SAS,"RNA-Seq, item: DPH5 mRNA","1 µM, 6 h",baseline: untreated cells,log2 fold change,0.643
CCCCCCCCCC(=O)[O][Pt]([Cl])([Cl])[O]C(=O)CCCCCCCCC.N.N,A549/DDP cisplatin-resistant,,added: survivin siRNA transfection,baseline: non-transfected over transfected,IC50 fold reduction,1.46 fold
Cn1ncc2cc(-c3cncc(Cl)c3N3CCC4(CCNC4=O)CC3)ccc21,LS174T,"gene expression, microarray, item: PPFIA4 mRNA","concentration not given, 4 h",baseline: untreated cells,log2 fold change,1.98
COc1cc(N2CCOCC2)ccc1Nc1ncc(Cl)c(Nc2ccccc2NS(C)(=O)=O)n1,PC-9 del19/T790M/C797S,PI flow cytometry,"above 0.3 µM, 18 h",,G2/M phase cells,increased
CO[C@@H]1[C@@H](OC(N)=O)[C@@H](O)[C@H](Oc2ccc3c(O)c(NC(=O)c4ccc(O)c(CC=C(C)C)c4)c(=O)oc3c2C)OC1(C)C,DLD-1 parental,,300 µM,baseline: untreated,colony survival,0.12%
COC(=O)c1cc(NC2=NC(=O)C(=Cc3ccc(C)cc3)S2)ccc1OC(C)=O,MCF7,"GC-MS, item: L-Aspartic acid",1 µM,baseline: DMSO,metabolite level,0.27 fold change
CSC(=S)N/N=C(\C)c1ccc(Nc2nnc(-c3ccc(Cl)cc3)c3ccccc23)cc1,MCF7,"cell growth or viability, MTT",2.5 µM,,cell death,89.6%
Cc1cc(Cl)cc(-c2ccnc3cc(CN4C(=O)C5C(C4=O)C5(C)C)sc23)c1C[C@@H]1CNCCO1 (some centres unmarked),CHP-212 resistant,PI flow cytometry,"0.1 µM, 24 h",,G1 phase cells,69.9%
CCNc1cc2c(cc1C)C1(c3cc(C)c(NCC)cc3O2)c2ccccc2C(=O)N1N=Cc1c[c-]c(-c2ccccn2)cc1.Cc1c(C)c(-c2ccc(-c3ccccc3)cc2)[c-](C)c1C.[Cl-].[Ir+3],A549,"mitochondrial membrane potential loss, JC-1 flow cytometry","2.0 x IC50, 24 h",,JC-1 monomer cells,3.86 ± 0.27%
[Cl-].[Cl-].[Ru+2].c1ccc(-c2ccccn2)nc1.c1ccc(-c2ccccn2)nc1.c1ccc2cc3nc4c5cccnc5c5ncccc5c4nc3cc2c1,SK-MEL-28,"cell growth, SRB","dark, normoxia",,TGI,57300 nM
Nc1cc2cccnc2c2ncccc12.[Cl-].[Cl-].[Ru+2].c1cnc2c(c1)ccc1cccnc12.c1cnc2c(c1)ccc1cccnc12,PC-3,,"10 µM, 30 min irradiation",baseline: untreated irradiated cells,trypsin resistance,140 ± 5.1%
COc1ccc(N(CC2CC2)S(=O)(=O)C2CC3OC2C(c2ccc(O)cc2)=C3c2ccc(O)cc2)cc1 (centres unmarked),"MCF7 3xERE-luc, steroid-deprived","ERE luciferase reporter, agonist",,baseline: vehicle,Emax,-7%
COc1cccc(OC)c1-c1cc(C(=O)NC2(C(=O)O)C3CC4CC(C3)CC2C4)nn1-c1ccc(C(=O)N(C)CCOCCOCCN(C)C(=O)[C@H](CCCCNC(=O)[C@H](CC(C)C)NC(=O)C2OC2C(=O)O)NC(=O)CN2CCN(CC(=O)[O-])CCN(CC(=O)[O-])CCN(CC(=O)[O-])CC2)cc1C(C)C.[177Lu+3] (mixture of isomers),HT-29,,"concentration not given, 60 min",baseline: added activity,surface-bound fraction,0.66 ± 0.04%
CCCCCCc1cccc(C(O)CC(CO)NC(=O)CCCCCCCCCCNC(C)=O)c1 (centres unmarked),HeLa,"CERT activity, HPLC-MS/MS lipidomics, item: ceramide 22","1 µM, 24 h, not cell-number normalised",,ceramide level,2010 pmol/sample and 1750 pmol/sample
C=C1C(=O)OC2C1CCC(C)(O)C13C=CC(C)(C21)C1(C3)C(=O)OC2C3C(C)=CCC3(O)C(C)=CC(OC(C)=O)C21 (centres unmarked),AML12 mouse hepatocytes,"lipid accumulation, Nile Red staining","maximum safe concentration, 24 h, added: palmitic acid/oleic acid",,maximum inhibition,16.9 ± 2.57%
O=S(=O)(c1ccc2c(c1)OCO2)n1cc(CCCCN2CCC(=C(c3ccc(F)c(F)c3)c3ccc(F)c(F)c3)CC2)nn1,B16-F10-luc2,"TMT proteomics, item: ORMDL1","5 µM, 2 h",,protein level,increased
CCN(CC)CC(=O)Nc1cccc(-n2cc(-c3ccc4ccc(-c5cn(-c6cccc(NC(=O)CN(CC)CC)c6)nn5)cc4c3)nn2)c1,RCC4,"PCR angiogenesis array, item: FLT1","5 x IC50, 2 h, normoxia",baseline: untreated,fold regulation,1.33
Cc1ccc(-n2cc(CSc3nc4ccccc4n3Cc3cn(-c4ccc(C)cc4)nn3)nn2)cc1,HEK293,MTT,31.3 ppm,,cytotoxicity,51.9%
COC(=O)c1cc(NC2=NC(=O)C(=Cc3ccc(N(C)C)cc3)S2)ccc1OC(C)=O,MCF7,"GC-MS, item: Myristic acid",1 µM,baseline: DMSO,metabolite level,-0.76 fold change
CNS(=O)(=O)Nc1nccc(Cc2c(C)c3ccc(Oc4ncccc4F)cc3oc2=O)c1F,DBTRG-05MG,cell viability,7 days,,IC50,4.6 nM
COc1ccc(NC(=O)c2ccc3[nH]c(-c4ccc(N(C)C)cc4)nc3c2)cn1,HCT-116,,"6 h, unit not given",baseline: DMSO,extracellular ATP,2.91
COc1cc(N2CCN(C(=O)C3CCCN3)CC2)ccc1Nc1ncc(Cl)c(Nc2ccccc2P(C)(C)=O)n1 (centres unmarked),NCI-H3122,CCK-8,"500 nM, 48 h",,viability,15%
C=C1C[C@]2(C(=O)OC)C=C(C(=O)Nc3cccc(C(=O)Nc4ccc(Nc5nccc(-c6cccnc6)n5)c(C)c4)c3)C(=O)[C@H]1C2,HEK293 AP1 reporter cells,"AP-1 reporter gene, inhibitor","3 µM, 6 h, unit not given, added: PMA",baseline: PMA alone,reporter activity,0.582
COc1ccccc1-c1ccncc1C(=O)Nc1nnc(OCc2ccc(Cl)cc2)s1,PEO1 BRCA2-mutant,,"1.00 µM, added: olaparib 0.5 µM",,colony survival,0%
CC(C)c1ccc(N(C)c2ccc3c(c2)OCC[C@H]3CNc2cnccc2C(=O)O)cc1,KU-19-19,"cell growth or viability, ATP luminescence",7 days,,IC50,10.3 nM

# A few entries again:
SMILES,cell line,assay,setting,scale,quantity,value
Cn1c(=O)n(C2CCC(=O)NC2=O)c2ccc(C3CCN(CC(=O)Nc4cccc(CS(=O)(=O)N5CC[C@H](Nc6cccc(-c7sc(C(=O)O)c(OCC(=O)O)c7Cl)c6)CC5(C)C)c4)CC3)cc21 (some centres unmarked),B16-F10,"HTRF, item: phospho-STAT1 Tyr701","0.014 µM, added: IFN-γ",baseline: DMSO,fold change,2.48 and 2.05 and 2.35 and 1.95 and 1.99
CCOc1cncc(-c2ccc(NC(=O)C3(c4ccnc(NS(=O)(=O)C5CC5)n4)CCOCC3)nc2)n1,MEC1,"cell growth or viability, ATP luminescence",72 h,,IC50,57 nM
C=CC(=O)N1[C@@H](c2ccc3c(c2)OCO3)c2[nH]c3ccccc3c2C[C@H]1C(=O)NC1CC1,rat DRG neurons,,"0.3704 µM, 48 h, added: vincristine 40 nM",,neuron degeneration,81.1% and 75.7%
